Results collected from several papers.
Numbers after ± are the reported error.
Ache: Acetylcholinesterase (Ache, Mus musculus, UniProt P21836)
rep nsp12 with nsp7/nsp8: Replicase polyprotein 1ab, nsp12 with nsp7/nsp8 (rep, Severe acute respiratory syndrome coronavirus 2, UniProt P0DTD1)

The chains behind the UniProt entries cited, without tags or fusion partners. Residues count along the entry.
UniProt P21836, whole entry, looked up: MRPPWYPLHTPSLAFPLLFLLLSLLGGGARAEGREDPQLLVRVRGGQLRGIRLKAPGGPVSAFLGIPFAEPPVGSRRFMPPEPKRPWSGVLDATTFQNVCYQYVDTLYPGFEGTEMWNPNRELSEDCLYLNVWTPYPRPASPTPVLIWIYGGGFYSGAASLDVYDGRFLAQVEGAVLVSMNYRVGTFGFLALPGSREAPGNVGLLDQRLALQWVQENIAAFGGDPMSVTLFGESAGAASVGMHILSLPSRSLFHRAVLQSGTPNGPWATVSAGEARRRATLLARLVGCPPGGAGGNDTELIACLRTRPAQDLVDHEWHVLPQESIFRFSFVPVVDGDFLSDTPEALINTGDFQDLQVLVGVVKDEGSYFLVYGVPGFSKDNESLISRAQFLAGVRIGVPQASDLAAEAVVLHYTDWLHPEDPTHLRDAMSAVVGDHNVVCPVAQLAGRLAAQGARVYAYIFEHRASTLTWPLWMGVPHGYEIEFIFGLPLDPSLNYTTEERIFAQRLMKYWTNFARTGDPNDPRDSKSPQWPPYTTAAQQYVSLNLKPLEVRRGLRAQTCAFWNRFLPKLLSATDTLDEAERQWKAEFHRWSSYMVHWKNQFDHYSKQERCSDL
UniProt Q8IJ22, 1-359: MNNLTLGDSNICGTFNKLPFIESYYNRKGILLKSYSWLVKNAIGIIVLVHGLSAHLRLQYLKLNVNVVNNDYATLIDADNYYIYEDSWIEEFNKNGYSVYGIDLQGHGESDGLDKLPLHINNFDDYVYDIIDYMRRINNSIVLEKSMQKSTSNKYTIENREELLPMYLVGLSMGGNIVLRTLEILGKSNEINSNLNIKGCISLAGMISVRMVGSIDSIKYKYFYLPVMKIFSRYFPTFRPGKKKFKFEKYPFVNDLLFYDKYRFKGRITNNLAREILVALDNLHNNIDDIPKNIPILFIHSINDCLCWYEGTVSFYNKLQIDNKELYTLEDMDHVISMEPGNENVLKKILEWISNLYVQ
UniProt P02708, whole entry, looked up: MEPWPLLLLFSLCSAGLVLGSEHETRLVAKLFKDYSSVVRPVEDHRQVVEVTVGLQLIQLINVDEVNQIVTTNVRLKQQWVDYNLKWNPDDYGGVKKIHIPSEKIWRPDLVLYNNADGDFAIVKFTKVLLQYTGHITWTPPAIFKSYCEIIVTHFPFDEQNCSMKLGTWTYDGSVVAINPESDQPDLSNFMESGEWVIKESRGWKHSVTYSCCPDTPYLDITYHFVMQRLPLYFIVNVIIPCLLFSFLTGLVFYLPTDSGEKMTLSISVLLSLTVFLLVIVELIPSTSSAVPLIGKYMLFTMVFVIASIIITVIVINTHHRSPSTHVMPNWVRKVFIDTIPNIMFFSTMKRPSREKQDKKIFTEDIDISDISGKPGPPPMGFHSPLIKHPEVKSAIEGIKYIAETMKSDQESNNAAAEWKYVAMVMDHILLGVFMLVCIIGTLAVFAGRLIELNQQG
UniProt P11230, whole entry, looked up: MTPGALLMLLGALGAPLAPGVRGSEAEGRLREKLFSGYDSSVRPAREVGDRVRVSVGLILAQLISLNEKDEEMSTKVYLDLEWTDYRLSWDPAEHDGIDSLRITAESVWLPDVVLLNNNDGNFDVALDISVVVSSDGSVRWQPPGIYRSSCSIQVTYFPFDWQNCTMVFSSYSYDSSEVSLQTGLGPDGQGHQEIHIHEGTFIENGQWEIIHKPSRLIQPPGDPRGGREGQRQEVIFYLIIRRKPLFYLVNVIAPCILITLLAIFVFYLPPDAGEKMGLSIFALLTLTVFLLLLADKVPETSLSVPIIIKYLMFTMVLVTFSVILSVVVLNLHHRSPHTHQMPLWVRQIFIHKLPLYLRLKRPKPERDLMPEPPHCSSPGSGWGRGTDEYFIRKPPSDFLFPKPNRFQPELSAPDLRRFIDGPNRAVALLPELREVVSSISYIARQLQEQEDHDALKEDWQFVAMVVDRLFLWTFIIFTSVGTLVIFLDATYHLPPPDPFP
UniProt Q04844, whole entry, looked up: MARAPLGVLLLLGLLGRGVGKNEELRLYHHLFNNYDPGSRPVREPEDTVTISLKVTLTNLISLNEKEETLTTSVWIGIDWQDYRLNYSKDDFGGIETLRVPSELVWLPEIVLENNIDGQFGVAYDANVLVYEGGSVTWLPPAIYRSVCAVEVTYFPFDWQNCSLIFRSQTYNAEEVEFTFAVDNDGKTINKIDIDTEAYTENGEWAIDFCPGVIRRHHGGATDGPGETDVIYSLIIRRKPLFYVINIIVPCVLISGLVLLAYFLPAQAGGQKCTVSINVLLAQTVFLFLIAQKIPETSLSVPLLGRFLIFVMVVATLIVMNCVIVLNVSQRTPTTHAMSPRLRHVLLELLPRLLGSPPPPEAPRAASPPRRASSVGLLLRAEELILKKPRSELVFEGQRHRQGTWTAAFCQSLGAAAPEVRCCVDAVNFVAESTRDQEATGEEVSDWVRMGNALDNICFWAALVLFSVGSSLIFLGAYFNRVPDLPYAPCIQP
UniProt Q07001, whole entry, looked up: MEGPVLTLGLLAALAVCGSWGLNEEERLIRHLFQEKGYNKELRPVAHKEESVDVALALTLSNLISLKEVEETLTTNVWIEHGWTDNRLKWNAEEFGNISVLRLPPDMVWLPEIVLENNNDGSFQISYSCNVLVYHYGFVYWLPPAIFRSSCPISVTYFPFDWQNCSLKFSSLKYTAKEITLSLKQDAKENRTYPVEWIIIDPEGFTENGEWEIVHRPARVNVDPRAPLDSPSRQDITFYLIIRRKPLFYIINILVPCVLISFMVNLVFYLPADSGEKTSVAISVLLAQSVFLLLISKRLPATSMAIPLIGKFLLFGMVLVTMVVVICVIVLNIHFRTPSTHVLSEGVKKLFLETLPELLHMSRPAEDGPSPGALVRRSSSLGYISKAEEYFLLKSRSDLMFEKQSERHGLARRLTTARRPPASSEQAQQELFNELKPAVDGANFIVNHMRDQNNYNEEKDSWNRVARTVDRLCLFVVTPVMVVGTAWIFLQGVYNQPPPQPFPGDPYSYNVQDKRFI
UniProt P41143, whole entry: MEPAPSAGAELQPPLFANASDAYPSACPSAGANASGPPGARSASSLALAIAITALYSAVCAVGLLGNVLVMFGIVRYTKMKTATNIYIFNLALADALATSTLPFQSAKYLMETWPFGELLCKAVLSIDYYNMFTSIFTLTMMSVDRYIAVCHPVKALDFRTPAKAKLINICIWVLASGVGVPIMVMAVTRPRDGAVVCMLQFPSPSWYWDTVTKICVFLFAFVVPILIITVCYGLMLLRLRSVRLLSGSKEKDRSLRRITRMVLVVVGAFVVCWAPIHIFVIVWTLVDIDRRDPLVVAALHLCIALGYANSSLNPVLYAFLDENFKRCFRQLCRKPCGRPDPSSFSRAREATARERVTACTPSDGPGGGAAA

Structure (SMILES) | target or system | test | system | conditions | quantity | result
NC12CC3CC(CC(C3)C1)C2 | Influenza A virus | viral replication, plaque size reduction | MDCK, A/Swine/Iowa/9-0814/2009 (H1N1) |  | EC50 | 38.2 ± 3.2 µM
C#CCCCCP(=O)(OCC)Oc1ccccc1 (centres unmarked) | Monoacylglycerol lipase (Plasmodium falciparum, UniProt Q8IJ22) | enzyme activity, inhibitor |  | up to 25 µM | inhibition | no inhibition
CNC(=O)Oc1cccc2c1OC(C)(C)C2 | Ache |  | ES1+/+ mice, plasma | subcutaneous, 1.0 mg/kg, 0.5 h, toxicant challenge | inhibition | 52 ± 5.6%
CN(C)[C@]1(c2ccccc2)CC[C@]2(CC1)OCCc1c3cc(F)ccc3[nH]c12 | rep nsp12 with nsp7/nsp8 | RdRp activity, inhibitor |  | 20 µM | inhibition | -0.98%
CCOP(=S)(OCC)Oc1ccc([N+](=O)[O-])cc1 | Ache |  | ES1+/+ mice, plasma | subcutaneous, 12.5 mg/kg, 6.0 h, toxicant challenge | inhibition | 56 ± 2.3%
CN(C(=O)Cc1ccc(Cl)c(Cl)c1)[C@H]1CC[C@@]2(CCCO2)C[C@@H]1N1CCCC1 | rep nsp12 with nsp7/nsp8 | RdRp activity, inhibitor |  | 20 µM | inhibition | -4.66%
CCOP(=S)(OCC)Oc1nc(Cl)c(Cl)cc1Cl | Ache |  | ES1+/+ mice, plasma | transdermal, 100.0 mg/kg, 6.0 h, toxicant challenge | inhibition | 70.4 ± 6.6%
O=c1c(O)c(-c2ccc(O)c(O)c2)oc2cc(O)cc(O)c12 | Replicase polyprotein 1ab, 3C-like proteinase (rep, Severe acute respiratory syndrome-related coronavirus, UniProt P0C6X7) | 3CLpro cleavage, ELISA |  | concentration not given | inhibition | no inhibition
CC[C@H](C)[C@@H]1NC(=O)CNC(=O)[C@H](CC(N)=O)NC(=O)[C@H](CC(N)=O)NC(=O)[C@H](CO)NC(=O)[C@@H]2CSSC[C@@H]3NC(=O)[C@H](CC(N)=O)NC(=O)[C@H]([C@@H](C)O)NC(=O)[C@H](CO)NC(=O)[C@H]([C@@H](C)O)NC(=O)[C@H](Cc4ccccc4)NC(=O)[C@@H]4CSSC[C@H](NC(=O)[C@H](CO)NC(=O)CNC(=O)[C@H](CCC(N)=O)NC3=O)C(=O)N[C@@H](CCC(=O)O)C(=O)N[C@H]3CSSC[C@H](NC(=O)CNC(=O)[C@@H]5CCCN5C(=O)[C@H](CCC(N)=O)NC(=O)[C@H](CCCNC(=N)N)NC1=O)C(=O)N[C@@H](CO)C(=O)N[C@@H](CSSC[C@H](NC(=O)CNC(=O)[C@@H]1C[C@@H](O)CN1C(=O)[C@@H]1C[C@@H](O)CN1C(=O)[C@H](CO)NC(=O)[C@H](CC(C)C)NC3=O)C(=O)N[C@@H](Cc1ccc(O)cc1)C(=O)N2)C(=O)N[C@@H]([C@@H](C)O)C(=O)N[C@H](C(=O)N1CCC[C@H]1C(=O)NCC(=O)N[C@H](C(N)=O)[C@@H](C)O)CSSC[C@H](NC(=O)[C@@H](NC(=O)[C@H](CO)NC(=O)CNC(=O)[C@@H](N)CO)[C@@H](C)O)C(=O)N[C@@H]([C@@H](C)O)C(=O)N4 | Nicotinic acetylcholine receptor alpha-1/beta-1/delta/epsilon (Homo sapiens, UniProt P02708+P11230+Q04844+Q07001) | ion current, antagonist | Xenopus oocytes | 1 µM, with: acetylcholine 10 µM | inhibition | < 50%
NC(Cc1ccc([N+]([O-])(CCCl)CCCl)cc1)C(=O)O (centres unmarked) | Replicase polyprotein 1ab, main protease (rep, Severe acute respiratory syndrome coronavirus 2, UniProt P0DTD1) |  |  | 20 µM, hit confirmation | inhibition | 9.1%
Cc1cc2c(-c3ccco3)cnc(N[C@H]3CCN(C)C[C@@H]3C(=O)NC3CCCCC3)c2[nH]c1=O | OPRD1 (Homo sapiens, UniProt P41143) | binding, radioligand binding |  | 10 µM | inhibition | 22%

Some of these lines once more:
Structure (SMILES) | target or system | test | system | conditions | quantity | result
CN(C(=O)Cc1ccc(Cl)c(Cl)c1)[C@H]1CC[C@@]2(CCCO2)C[C@@H]1N1CCCC1 | rep nsp12 with nsp7/nsp8 | RdRp activity, inhibitor |  | 20 µM | inhibition | -4.66%
CCOP(=S)(OCC)Oc1nc(Cl)c(Cl)cc1Cl | Ache |  | ES1+/+ mice, plasma | transdermal, 100.0 mg/kg, 6.0 h, toxicant challenge | inhibition | 70.4 ± 6.6%
